Published values gathered from unrelated publications.
Every numbered part comes from another study and shows a few of its results, in no order.

Study 1 — technique: universal PBM; molecule type: double-stranded DNA, one strand shown; matrix: in vitro; concentration: not given; reading: higher = stronger binding
Target: Sal-like protein 4, full length isoform B (SALL4, Homo sapiens, UniProt Q9UJQ4-2, residues 1-616)
Setting: 8-mer, flanks averaged, mean of replicates
Target sequence (chain): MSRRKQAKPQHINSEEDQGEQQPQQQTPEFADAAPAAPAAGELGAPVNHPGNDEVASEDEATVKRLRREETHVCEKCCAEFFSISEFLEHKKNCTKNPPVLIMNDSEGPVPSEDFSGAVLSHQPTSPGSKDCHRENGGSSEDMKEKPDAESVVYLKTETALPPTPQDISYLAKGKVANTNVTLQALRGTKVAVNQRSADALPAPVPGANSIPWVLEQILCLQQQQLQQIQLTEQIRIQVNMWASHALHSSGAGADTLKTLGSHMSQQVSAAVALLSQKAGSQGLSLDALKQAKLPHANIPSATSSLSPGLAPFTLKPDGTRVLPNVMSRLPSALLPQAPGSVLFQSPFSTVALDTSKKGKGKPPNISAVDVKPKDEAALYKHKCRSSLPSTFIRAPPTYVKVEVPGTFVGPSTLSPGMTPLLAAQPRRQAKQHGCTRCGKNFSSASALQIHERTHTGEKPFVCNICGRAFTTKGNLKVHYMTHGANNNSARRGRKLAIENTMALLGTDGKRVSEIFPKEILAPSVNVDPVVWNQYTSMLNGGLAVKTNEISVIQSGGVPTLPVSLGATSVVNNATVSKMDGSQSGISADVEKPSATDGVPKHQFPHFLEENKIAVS
`ACTTTTTA` gave an E-score of 0.245.
For `GGAGTATA`, the E-score was 0.142.
`CCCATTGA` has an E-score of -0.113.
With `AGGTCGCA` the E-score was -0.0612.

Study 2 — technique: protein binding microarray; molecule type: double-stranded DNA, one strand shown; matrix: in vitro; concentration: not given; baseline: not given; reading: higher = stronger binding
Target: Histone acetyltransferase KAT6A, both winged helices, GST fusion (KAT6A, Homo sapiens, UniProt Q92794, residues 1-181)
Setting: 8-mer, flanks averaged, mean of 2 arrays, mostly near background
Construct (chain): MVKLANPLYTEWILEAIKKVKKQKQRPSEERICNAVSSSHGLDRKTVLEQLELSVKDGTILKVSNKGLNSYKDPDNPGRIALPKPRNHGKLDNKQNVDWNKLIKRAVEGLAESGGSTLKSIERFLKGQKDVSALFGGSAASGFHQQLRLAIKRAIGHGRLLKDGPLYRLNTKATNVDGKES
The E-score of `AAGTCACT` is reported as -0.0282.
`ACGTGATC` gave an E-score of 0.0415.
The E-score of `AAAGCAAA` is reported as -0.093.

Further values, each from its own experiment
Pou5f1 POU domain: POU domain, class 5, transcription factor 1, POU domain (Pou5f1, Mus musculus, UniProt P20263, residues 131-289)
UniProt P20263, sequence (131-289, looked up): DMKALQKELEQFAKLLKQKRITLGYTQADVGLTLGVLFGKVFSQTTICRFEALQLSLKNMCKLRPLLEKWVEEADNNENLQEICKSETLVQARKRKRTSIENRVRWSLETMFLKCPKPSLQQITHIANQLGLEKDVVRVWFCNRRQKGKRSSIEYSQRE
`GAGTCGTCTCGTCAGCACATGCTCAACCGTAGAGCACTCAGGTC`: “relative binding energy” 0.332 ln ratio (Pou5f1 POU domain; Spec-seq; double-stranded DNA, one strand shown, in vitro; not given, whole probe, mean of replicates; baseline: not given, lower = stronger binding).
The fold induction of `PhoQ, residues 284 288 289 292 302 303 SASVAL` is reported as 14.2 (PhoP, residues 12 14 15 18 19 VQGLL (Escherichia coli, UniProt P23836); Sort-seq, refers to: YFP reporter; E. coli; PhoQ-PhoP variant library, together with: 10 µM Mg2+; baseline: high Mg2+ state, higher = stronger signaling).
`GAGTCGTCTCGTCAGCACATTAACATCCGTAGAGCACTCAGGTC`: “relative binding energy” -2.81 ln ratio (Pou5f1 POU domain; Spec-seq; double-stranded DNA, one strand shown, in vitro; not given, whole probe, mean of replicates; baseline: not given, lower = stronger binding).
`GAGTCGTCTCGTCAGCACATGAACATCCGTAGAGCACTCAGGTC`: “relative binding energy” 0.37 ln ratio (Pou5f1 POU domain; Spec-seq; double-stranded DNA, one strand shown, in vitro; not given, whole probe, mean of replicates; baseline: not given, lower = stronger binding).

Some of these lines once more (further values, each from its own experiment):
`GAGTCGTCTCGTCAGCACATGAACATCCGTAGAGCACTCAGGTC`: “relative binding energy” 0.37 ln ratio (Pou5f1 POU domain; Spec-seq; double-stranded DNA, one strand shown, in vitro; not given, whole probe, mean of replicates; baseline: not given, lower = stronger binding).
